{"data": "Experimental data of several laboratories", "PCNA": "PCNA (Homo sapiens, UniProt P12004)", "Rbpj": "Rbpj 53-474 (Mus musculus, UniProt P31266)", "BIRC5": "BIRC5 1-142 (Homo sapiens, UniProt O15392)", "CIB1": "CIB1 (Homo sapiens, UniProt Q99828)", "note": "Lines come from different studies, so protocols differ. ± gives the spread as reported. Non-standard residues stand in square brackets, D forms with d. Square brackets hold non-standard residues; d marks the D form. Bridges are numbered along the chain shown (N, C = ends). Primed or numbered codes have the meaning given here. Where no end group is shown, it is not given here. Ends that are not written are not given here. No end group written: not given here. [ ]: non-standard residue; d: D form. The star is where a group is joined.", "sequence of UniProt P31266 (whole entry, looked up)": "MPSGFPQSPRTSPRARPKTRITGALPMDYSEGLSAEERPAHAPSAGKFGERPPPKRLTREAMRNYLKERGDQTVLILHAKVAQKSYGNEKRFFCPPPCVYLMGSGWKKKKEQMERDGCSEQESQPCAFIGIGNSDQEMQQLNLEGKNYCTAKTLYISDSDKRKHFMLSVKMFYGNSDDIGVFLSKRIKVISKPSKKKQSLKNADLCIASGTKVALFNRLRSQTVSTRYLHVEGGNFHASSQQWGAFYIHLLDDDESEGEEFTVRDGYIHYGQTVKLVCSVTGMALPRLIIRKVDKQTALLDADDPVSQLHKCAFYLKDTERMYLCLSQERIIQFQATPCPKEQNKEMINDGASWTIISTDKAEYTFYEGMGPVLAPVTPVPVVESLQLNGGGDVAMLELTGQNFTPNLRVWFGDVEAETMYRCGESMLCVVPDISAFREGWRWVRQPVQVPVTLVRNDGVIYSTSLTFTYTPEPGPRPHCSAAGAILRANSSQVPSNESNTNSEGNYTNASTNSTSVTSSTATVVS", "sequence of UniProt P12004 (whole entry, looked up)": "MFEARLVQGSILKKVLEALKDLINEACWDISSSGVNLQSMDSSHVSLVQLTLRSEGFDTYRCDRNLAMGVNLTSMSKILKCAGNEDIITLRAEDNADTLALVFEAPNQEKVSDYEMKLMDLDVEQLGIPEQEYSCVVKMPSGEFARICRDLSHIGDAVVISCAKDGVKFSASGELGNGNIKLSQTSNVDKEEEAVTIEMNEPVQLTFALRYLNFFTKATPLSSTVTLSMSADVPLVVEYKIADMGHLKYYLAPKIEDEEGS", "sequence of UniProt Q99828 (whole entry, looked up)": "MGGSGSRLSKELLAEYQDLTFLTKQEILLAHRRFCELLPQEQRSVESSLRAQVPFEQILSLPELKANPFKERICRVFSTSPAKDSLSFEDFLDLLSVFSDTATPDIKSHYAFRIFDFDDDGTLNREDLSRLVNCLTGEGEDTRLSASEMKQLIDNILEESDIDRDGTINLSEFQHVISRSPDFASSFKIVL", "sequence of UniProt O15392 (whole entry, looked up)": "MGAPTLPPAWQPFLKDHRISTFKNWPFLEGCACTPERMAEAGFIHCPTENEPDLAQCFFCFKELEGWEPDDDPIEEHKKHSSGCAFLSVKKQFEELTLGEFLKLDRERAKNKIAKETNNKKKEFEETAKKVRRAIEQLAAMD", "sequence of UniProt Q14145 (whole entry, looked up)": "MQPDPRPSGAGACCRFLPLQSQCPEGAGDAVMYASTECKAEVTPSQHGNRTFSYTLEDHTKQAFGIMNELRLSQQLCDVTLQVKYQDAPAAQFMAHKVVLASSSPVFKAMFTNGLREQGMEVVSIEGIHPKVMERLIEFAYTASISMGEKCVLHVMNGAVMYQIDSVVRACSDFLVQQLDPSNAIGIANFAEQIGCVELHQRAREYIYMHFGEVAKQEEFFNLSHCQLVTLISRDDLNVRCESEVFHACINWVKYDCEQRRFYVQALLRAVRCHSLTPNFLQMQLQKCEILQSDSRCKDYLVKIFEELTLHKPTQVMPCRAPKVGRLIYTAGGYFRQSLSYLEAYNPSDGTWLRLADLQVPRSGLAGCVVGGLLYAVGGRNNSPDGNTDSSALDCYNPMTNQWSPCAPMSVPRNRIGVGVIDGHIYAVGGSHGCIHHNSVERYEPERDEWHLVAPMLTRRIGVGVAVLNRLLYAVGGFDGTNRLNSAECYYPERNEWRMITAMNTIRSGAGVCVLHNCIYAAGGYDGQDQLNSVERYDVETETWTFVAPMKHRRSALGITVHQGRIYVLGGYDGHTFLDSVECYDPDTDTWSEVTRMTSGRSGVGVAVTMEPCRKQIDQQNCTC", "sequence of UniProt P38927 (whole entry, looked up)": "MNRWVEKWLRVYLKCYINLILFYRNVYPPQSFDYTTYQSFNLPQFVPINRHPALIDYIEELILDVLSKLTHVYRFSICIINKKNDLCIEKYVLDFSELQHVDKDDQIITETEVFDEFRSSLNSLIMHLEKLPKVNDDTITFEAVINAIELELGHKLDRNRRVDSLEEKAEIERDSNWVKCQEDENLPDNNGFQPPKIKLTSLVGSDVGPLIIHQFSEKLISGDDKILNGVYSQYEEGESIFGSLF", "sequence of UniProt P35269 (whole entry, looked up)": "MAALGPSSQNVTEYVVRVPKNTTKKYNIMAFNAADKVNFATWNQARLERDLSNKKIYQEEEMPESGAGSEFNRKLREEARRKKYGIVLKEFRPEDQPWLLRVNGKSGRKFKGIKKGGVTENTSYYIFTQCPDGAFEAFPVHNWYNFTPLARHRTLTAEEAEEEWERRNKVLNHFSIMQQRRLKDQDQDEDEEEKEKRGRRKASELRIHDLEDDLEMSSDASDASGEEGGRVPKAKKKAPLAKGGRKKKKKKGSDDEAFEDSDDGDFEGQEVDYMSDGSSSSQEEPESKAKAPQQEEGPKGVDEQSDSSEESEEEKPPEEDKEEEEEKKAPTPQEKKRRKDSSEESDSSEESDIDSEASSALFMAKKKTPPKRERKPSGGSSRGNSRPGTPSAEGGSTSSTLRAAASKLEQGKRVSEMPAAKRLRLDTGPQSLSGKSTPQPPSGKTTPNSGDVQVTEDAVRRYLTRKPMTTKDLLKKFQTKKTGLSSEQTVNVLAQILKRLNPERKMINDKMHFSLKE", "sequence of UniProt P70399 (whole entry, looked up)": "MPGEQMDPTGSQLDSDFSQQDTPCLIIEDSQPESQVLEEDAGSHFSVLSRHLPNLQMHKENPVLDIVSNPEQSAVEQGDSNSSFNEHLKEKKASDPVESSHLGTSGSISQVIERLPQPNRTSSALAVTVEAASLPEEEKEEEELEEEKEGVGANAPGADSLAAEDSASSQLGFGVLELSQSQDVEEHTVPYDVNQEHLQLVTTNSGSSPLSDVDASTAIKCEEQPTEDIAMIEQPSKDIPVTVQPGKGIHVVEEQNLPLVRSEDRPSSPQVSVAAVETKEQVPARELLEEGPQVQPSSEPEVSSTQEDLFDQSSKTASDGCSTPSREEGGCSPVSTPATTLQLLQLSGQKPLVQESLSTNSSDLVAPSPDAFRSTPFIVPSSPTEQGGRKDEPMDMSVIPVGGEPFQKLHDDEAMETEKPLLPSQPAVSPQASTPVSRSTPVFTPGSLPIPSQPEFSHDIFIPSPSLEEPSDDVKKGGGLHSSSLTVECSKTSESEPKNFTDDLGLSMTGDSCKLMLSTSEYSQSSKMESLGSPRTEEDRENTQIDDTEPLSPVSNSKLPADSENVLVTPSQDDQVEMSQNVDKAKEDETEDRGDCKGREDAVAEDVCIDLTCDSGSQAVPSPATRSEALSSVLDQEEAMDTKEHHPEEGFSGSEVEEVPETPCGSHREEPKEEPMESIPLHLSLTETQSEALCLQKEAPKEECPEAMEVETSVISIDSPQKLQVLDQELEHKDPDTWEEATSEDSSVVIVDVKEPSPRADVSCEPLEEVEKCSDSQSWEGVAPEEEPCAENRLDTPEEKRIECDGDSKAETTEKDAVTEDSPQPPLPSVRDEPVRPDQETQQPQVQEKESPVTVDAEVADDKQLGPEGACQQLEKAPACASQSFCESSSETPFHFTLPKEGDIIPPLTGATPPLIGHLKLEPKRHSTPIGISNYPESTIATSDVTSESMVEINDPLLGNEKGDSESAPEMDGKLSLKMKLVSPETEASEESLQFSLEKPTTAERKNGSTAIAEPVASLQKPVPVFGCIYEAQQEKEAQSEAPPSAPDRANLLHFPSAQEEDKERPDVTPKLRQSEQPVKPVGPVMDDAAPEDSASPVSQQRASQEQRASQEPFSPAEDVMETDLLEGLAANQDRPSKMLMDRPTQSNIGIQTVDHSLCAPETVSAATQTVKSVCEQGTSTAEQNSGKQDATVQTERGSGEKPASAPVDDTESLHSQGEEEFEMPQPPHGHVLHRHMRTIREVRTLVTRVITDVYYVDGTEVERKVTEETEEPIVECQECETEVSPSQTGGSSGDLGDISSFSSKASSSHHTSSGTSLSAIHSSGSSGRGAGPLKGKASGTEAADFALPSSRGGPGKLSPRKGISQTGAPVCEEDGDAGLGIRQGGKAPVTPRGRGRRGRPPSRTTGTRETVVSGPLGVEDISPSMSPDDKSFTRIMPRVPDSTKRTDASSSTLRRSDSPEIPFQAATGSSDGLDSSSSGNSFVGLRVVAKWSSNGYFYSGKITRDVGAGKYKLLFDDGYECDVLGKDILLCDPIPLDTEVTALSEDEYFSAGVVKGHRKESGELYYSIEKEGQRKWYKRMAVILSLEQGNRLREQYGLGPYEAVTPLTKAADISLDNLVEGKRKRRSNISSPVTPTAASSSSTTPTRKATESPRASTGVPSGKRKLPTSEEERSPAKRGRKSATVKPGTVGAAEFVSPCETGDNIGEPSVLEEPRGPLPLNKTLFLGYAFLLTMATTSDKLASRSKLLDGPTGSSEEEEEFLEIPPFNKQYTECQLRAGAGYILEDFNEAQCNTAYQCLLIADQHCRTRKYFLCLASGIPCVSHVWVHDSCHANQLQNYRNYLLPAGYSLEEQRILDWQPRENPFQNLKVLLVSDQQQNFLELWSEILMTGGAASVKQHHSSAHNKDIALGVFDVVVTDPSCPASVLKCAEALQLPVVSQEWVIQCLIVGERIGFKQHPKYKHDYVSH", "sequence of UniProt P11309 (whole entry, looked up)": "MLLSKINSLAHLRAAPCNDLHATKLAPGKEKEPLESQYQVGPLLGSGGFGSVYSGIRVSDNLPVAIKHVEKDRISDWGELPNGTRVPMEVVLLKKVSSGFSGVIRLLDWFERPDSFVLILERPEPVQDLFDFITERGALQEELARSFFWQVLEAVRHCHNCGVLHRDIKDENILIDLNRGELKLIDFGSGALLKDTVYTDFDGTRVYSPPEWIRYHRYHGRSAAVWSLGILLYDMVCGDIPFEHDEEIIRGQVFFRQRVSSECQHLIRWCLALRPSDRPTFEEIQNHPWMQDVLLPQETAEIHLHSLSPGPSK"}
{"Substance": "MWPHRVTAAK (peptide; fluorescein)", "partner": "MAP1LC3B (Homo sapiens, UniProt Q9GZQ8)", "assay": "fluorescence polarisation", "test system": "peptide", "Kd [µM]": "1.25 ± 0.453"}
{"Substance": "KRHRK(Me3)VLRD (histone H4 residues 16-24; K20me3; Me3 = trimethylated (lysine))", "partner": "Tp53bp1 1463-1617 (Mus musculus, UniProt P70399)", "assay": "NMR titration", "test system": "peptide", "Kd [µM]": "1700 ± 800"}
{"Substance": "KRRQTSMTDFFHSKR-NH2 (CDKN1A 141-155 Y151F (Homo sapiens, UniProt P38936); C-terminal amide)", "partner": "PCNA", "assay": "SPR", "test system": "peptide", "Kd [µM]": 0.0106}
{"Substance": "MENVKKATATTTWMVPTRQ (L3MBTL3 52-70 A69R (Homo sapiens, UniProt Q96JM7-2); sequence looked up)", "partner": "Rbpj", "assay": "ITC", "test system": "peptide", "setting": "pH 6.5, 25 °C, NaCl 150 mM, one site model", "Kd [µM]": 1.63}
{"Substance": "{FITC}-GLIHQYCQGYWRHVPPSPREAPGAPRSPEPQDQKKPRNRR (SEMA3F 740-779 (Homo sapiens); not fully specified; N-terminal FITC; FITC = O=C1OC2(c3ccc(O)cc3Oc3cc(O)ccc32)c2ccc(NC(=S)*)cc21)", "partner": "NRP2 277-592 (Homo sapiens, UniProt O60462)", "assay": "fluorescence polarisation", "test system": "peptide", "setting": "1.8 µM, pH 7.5, 23 °C, NaCl 100 mM, single site model", "Kd [µM]": "4.1 ± 0.5"}
{"Substance": "AR[pT]KQTARKSTG (H3C1 1-12; pT3; pT = C[C@@H](OP(=O)(O)O)[C@H](N)C(=O)O)", "partner": "BIRC5", "assay": "ITC", "test system": "peptide", "setting": "pH 6.8, 25 °C", "Kd [µM]": "1.45 ± 0.03"}
{"Substance": "{FITC′}-SNPDLPNKSNLKFNKPKGPLRKRRT (TWF1 308-332 (Saccharomyces cerevisiae); N-terminal FITC; FITC′ = fluorescein isothiocyanate)", "partner": "CAP1/CAP2 (Saccharomyces cerevisiae)", "assay": "fluorescence polarisation", "test system": "peptide", "Kd [µM]": 0.271}
{"Substance": "MYSSTDHILNKFLILHYALNPT (peptide)", "partner": "CD274 extracellular domain (Homo sapiens)", "assay": "BLI", "test system": "peptide", "Kd [µM]": 0.000249}
{"Substance": "AR[pT][Lys(Me)]QTARKSTG (histone H3 2-13 (UniProt P68431); pT3, K4me1; pT = C[C@@H](OP(=O)(O)O)[C@H](N)C(=O)O; Lys(Me) = CNCCCC[C@H](N)C(=O)O; sequence looked up)", "partner": "BIRC5", "assay": "ITC", "test system": "peptide", "setting": "pH 7.2", "Kd [µM]": "3.1 ± 0.14"}
{"Substance": "FSRSLHSLL (NR4A1 489-497 (UniProt P22736); D-Arg octamer fusion; sequence looked up)", "partner": "BCL2 (Homo sapiens, UniProt P10415)", "assay": "circular dichroism", "test system": "peptide", "setting": "pH 7.6", "Kd [µM]": "2.1 ± 0.2"}
{"Substance": "HIF1A plus GSC N826D, Alexa Fluor 488 on C-terminal Cys (sequence not shown)", "partner": "Crebbp fragment (Mus musculus)", "assay": "fluorescence polarisation", "setting": "pH 6.8, 25 °C, NaCl 50 mM", "Kd [µM]": 1.9}
{"Substance": "MENVKKRTATTTWMVPTAQ (L3MBTL3 52-70 A58R (Homo sapiens, UniProt Q96JM7-2); sequence looked up)", "partner": "Rbpj", "assay": "ITC", "test system": "peptide", "setting": "pH 6.5, 25 °C, NaCl 150 mM, one site model", "Kd [µM]": 0.54}
{"Substance": "RRRRRRRRKKPGLRRRQ[pT] (CDKN1B 189-198 (Homo sapiens); phosphothreonine 198; pT = C[C@@H](OP(=O)(O)O)[C@H](N)C(=O)O)", "partner": "PIM1 (Homo sapiens, UniProt P11309)", "assay": "SPR", "test system": "peptide", "Kd [µM]": 0.968}
{"Substance": "Ac-SAAASSSWH[S5]LFT[S5]EEGQLYG-NH2 (AR 426-446 T435X/A439X (Homo sapiens); staple 10-14; stapled i,i+4; N-acetyl; C-amide; S5 = C=CCCC[C@](C)(N)C(=O)O)", "partner": "GTF2F1 450-517 (Homo sapiens, UniProt P35269)", "assay": "NMR titration", "test system": "peptide", "setting": "pH 7.4, 298 K", "Kd [µM]": "125 ± 3"}
{"Substance": "MEAVKKATATTTWMVPTAQ (L3MBTL3 52-70 N54A (Homo sapiens, UniProt Q96JM7-2); sequence looked up)", "partner": "Rbpj", "assay": "ITC", "test system": "peptide", "setting": "pH 6.5, 25 °C, NaCl 150 mM, one site model", "Kd [µM]": 0.47}
{"Substance": "KRRQTSWTDFYHSKR-NH2 (CDKN1A 141-155 M147W (Homo sapiens, UniProt P38936); C-terminal amide)", "partner": "PCNA", "assay": "SPR", "test system": "peptide", "Kd [µM]": 3.57}
{"Substance": "EDGGSFWYGGMKALYG (designed peptide A5G)", "partner": "CIB1", "assay": "ITC", "test system": "peptide", "setting": "25 °C, together with: CaCl2 0.1 mM", "Kd [µM]": 1.99}
{"Substance": "MPIFLDHILNKFLILHYA (SPAM peptide parental)", "partner": "CD274 extracellular domain (Homo sapiens)", "assay": "BLI", "test system": "peptide", "Kd [µM]": 0.0382}
{"Substance": "KRRMKSIDTFFHSKR-NH2 (CDKN1A/RNASEH2B (Homo sapiens); C-terminal amide)", "partner": "PCNA", "assay": "SPR", "test system": "peptide", "Kd [µM]": 0.64}
{"Substance": "MENVKKATATTTWAVPTAQ (L3MBTL3 52-70 M65A (Homo sapiens, UniProt Q96JM7-2); sequence looked up)", "partner": "Rbpj", "assay": "ITC", "test system": "peptide", "setting": "pH 6.5, 25 °C, NaCl 150 mM, one site model", "Kd [µM]": 1}
{"Substance": "KRRKGLIDYYLHSKR-NH2 (CDKN1A/POLI (Homo sapiens); C-terminal amide)", "partner": "PCNA", "assay": "SPR", "test system": "peptide", "Kd [µM]": 0.111}
{"Substance": "PATPTASSSSSTTPT (TP53BP1 1636-1650 (Homo sapiens, UniProt Q12888); sequence looked up)", "partner": "SPOP MATH domain 28-164 (Homo sapiens, UniProt O43791)", "assay": "ITC", "test system": "peptide", "setting": "10 °C, NaCl 100 mM, one-site model", "Kd [µM]": "60.7 ± 8.1"}
{"Substance": "MENVKKATATTTWMVPTAQ (L3MBTL3 52-70 (Homo sapiens, UniProt Q96JM7-2); sequence looked up)", "partner": "Rbpj", "assay": "ITC", "test system": "peptide", "setting": "pH 6.5, 25 °C, NaCl 150 mM, one site model", "Kd [µM]": 0.92}
{"Substance": "MAAGLRYGKRAFVYGEPPFGYQDILNKLEDEGFPK (REV3 510-544 (Saccharomyces cerevisiae, UniProt P14284))", "partner": "REV7 1-245 (Saccharomyces cerevisiae, UniProt P38927)", "assay": "ITC", "test system": "peptide", "setting": "pH 8.4, 25 °C, NaCl 100 mM", "Kd [µM]": "3 ± 1.8"}
{"Substance": "MENVKKATATTTWMVPTAA (L3MBTL3 52-70 Q70A (Homo sapiens, UniProt Q96JM7-2); sequence looked up)", "partner": "Rbpj", "assay": "ITC", "test system": "peptide", "setting": "pH 6.5, 25 °C, NaCl 150 mM, one site model", "Kd [µM]": 0.94}
{"Substance": "EDGGSFWAGAMKALYG (designed peptide)", "partner": "CIB1", "assay": "ITC", "test system": "peptide", "setting": "25 °C, together with: CaCl2 0.1 mM", "Kd [µM]": 0.104}
{"Substance": "FKDLGEE (ALB 11-17 (Homo sapiens))", "partner": "AGER 24-125 (Homo sapiens, UniProt Q15109)", "assay": "fluorescence titration", "test system": "peptide", "setting": "100 nM, pH 6.5, 25 °C, NaCl 100 mM", "Kd [µM]": "673 ± 38"}
{"Substance": "KRRQTSATDFYHSKR-NH2 (CDKN1A 141-155 M147A (Homo sapiens, UniProt P38936); C-terminal amide)", "partner": "PCNA", "assay": "SPR", "test system": "peptide", "Kd [µM]": 7.59}
{"Substance": "YAG[pS][pT]DEN[pT]D[pS]E (XRCC1 residues 515-526 (Homo sapiens); pS518/pT519/pT523/pS525; pS = N[C@@H](COP(=O)(O)O)C(=O)O; pT = C[C@@H](OP(=O)(O)O)[C@H](N)C(=O)O)", "partner": "PNKP (Homo sapiens, UniProt Q96T60)", "assay": "ITC", "test system": "peptide", "Kd [µM]": 0.1}
{"Substance": "SLEEPHSPETGEKVVAGEVN (AMER1 20-residue peptide; pS286)", "partner": "KEAP1 321-609 (Homo sapiens, UniProt Q14145)", "assay": "ITC", "test system": "peptide", "setting": "pH 7, 25 °C, NaCl 100 mM", "Kd [µM]": 1.5}
{"Substance": "ARTK(Me3)QTARKSTG (histone H3 2-13 (UniProt P68431); K4me3; Me3 = trimethyl-lysine; sequence looked up)", "partner": "DIDO1 266-325 (Homo sapiens, UniProt Q9BTC0)", "assay": "intrinsic tryptophan fluorescence titration", "test system": "peptide", "setting": "pH 7.5, 25 °C", "Kd [µM]": 1.3}
{"Substance": "MENVKKATATTWMVPTAQ (L3MBTL3 52-70 del62 (Homo sapiens, UniProt Q96JM7-2); sequence looked up)", "partner": "Rbpj", "assay": "ITC", "test system": "peptide", "setting": "pH 6.5, 25 °C, NaCl 150 mM, one site model", "Kd [µM]": 0.99}
{"note": "Repeated from above:"}
{"Substance": "RRRRRRRRKKPGLRRRQ[pT] (CDKN1B 189-198 (Homo sapiens); phosphothreonine 198; pT = C[C@@H](OP(=O)(O)O)[C@H](N)C(=O)O)", "partner": "PIM1 (Homo sapiens, UniProt P11309)", "assay": "SPR", "test system": "peptide", "Kd [µM]": 0.968}
{"Substance": "FSRSLHSLL (NR4A1 489-497 (UniProt P22736); D-Arg octamer fusion; sequence looked up)", "partner": "BCL2 (Homo sapiens, UniProt P10415)", "assay": "circular dichroism", "test system": "peptide", "setting": "pH 7.6", "Kd [µM]": "2.1 ± 0.2"}
{"Substance": "KRRMKSIDTFFHSKR-NH2 (CDKN1A/RNASEH2B (Homo sapiens); C-terminal amide)", "partner": "PCNA", "assay": "SPR", "test system": "peptide", "Kd [µM]": 0.64}
{"Substance": "MENVKKATATTTWMVPTAQ (L3MBTL3 52-70 (Homo sapiens, UniProt Q96JM7-2); sequence looked up)", "partner": "Rbpj", "assay": "ITC", "test system": "peptide", "setting": "pH 6.5, 25 °C, NaCl 150 mM, one site model", "Kd [µM]": 0.92}
